{"data": "Experimental data pooled from the literature", "note": "A part holds a random share of what one study measured."}
{"data": "Block 1", "target": "TAR DNA-binding protein 43, full length, His tag (TARDBP, Homo sapiens, UniProt Q13148, residues 1-414)", "technique": "RNA Bind-n-Seq", "molecule type": "RNA", "sample": "in vitro", "concentration": "20 nM", "setting": "6-mer, flanks averaged, single round", "with": "150 mM KCl", "relative to": "input library", "reading": "higher = stronger binding"}
{"Strand": "UAUGUC", "6-mer enrichment (R)": 0.654}
{"Strand": "ACUGCG", "6-mer enrichment (R)": 0.927}
{"Strand": "CCUGAA", "6-mer enrichment (R)": 0.655}
{"Strand": "CACCGG", "6-mer enrichment (R)": 0.981}
{"Strand": "GAUUUU", "6-mer enrichment (R)": 0.631}
{"Strand": "CAUCUG", "6-mer enrichment (R)": 0.612}
{"Strand": "CGGCUU", "6-mer enrichment (R)": 0.736}
{"Strand": "UUAUAG", "6-mer enrichment (R)": 0.643}
{"Strand": "UCACGG", "6-mer enrichment (R)": 0.991}
{"Strand": "ACGGGA", "6-mer enrichment (R)": 2.19}
{"Strand": "GGGGCG", "6-mer enrichment (R)": 8.21}
{"Strand": "CUAAAG", "6-mer enrichment (R)": 0.693}
{"Strand": "GUAGCG", "6-mer enrichment (R)": 1.66}
{"data": "Block 2", "target": "UBE2E3 UBC core domain (UniProt Q969T4)", "technique": "yeast two-hybrid", "sample": "yeast", "setting": "mostly zero background", "relative to": "not given", "reading": "higher = stronger interaction", "B1": "TRIM2 RING domain (UniProt Q9C040); chain VRQIDKQFLICSICLERYKNPKVLPCLHTFCERCLQNYIPAHSLTLSCPVCRQTSILPEKGV", "B2": "SHPRH RING domain (UniProt Q149N8); chain KTSGGVNPEPCPICARQLGKQWAVLTCGHCFCNECISIIIEQYSVGSHRSSIKCAICRQTTSHKEISY", "B3": "TRIM34 RING domain (UniProt Q9BYJ4); chain ILLNVQEEVTCPICLELLTEPLSLDCGHSLCRACITVSNKEAVTSMGGKSSCPVCGISYSFEHLQA", "B4": "ARIH1 RING domain (UniProt Q9Y4X5); chain NTRSSAQDMPCQICYLNYPNSYFTGLECGHKFCMQCWSEYLTTKIMEEGMGQTISCPAHGCDILVDDNTVM", "B5": "RNF17 RING domain (UniProt Q9BXT8); chain SQPWGAAEIQCTRCGRRVSRSSGHHCELQCGHAFCELCLLMTEECTTIICPDCEVATAVNTRQR", "B6": "CBLL1 RING domain (UniProt Q75N03); chain GEKDDTPVHFCDKCGLPIKIYGRMIPCKHVFCYDCAILHEKKGDKMCPGCSDPVQRIEQCT", "UniProt Q969T4, sequence (whole entry, looked up)": "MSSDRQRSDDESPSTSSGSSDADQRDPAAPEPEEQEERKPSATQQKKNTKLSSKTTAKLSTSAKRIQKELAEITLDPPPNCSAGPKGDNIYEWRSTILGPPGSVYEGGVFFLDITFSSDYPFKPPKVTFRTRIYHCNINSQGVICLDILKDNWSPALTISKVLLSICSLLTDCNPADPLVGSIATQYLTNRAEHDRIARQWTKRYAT"}
{"Molecule": "B1 (TRIM2 RING domain)", "lacZ reporter activity": 0}
{"Molecule": "B2 (SHPRH RING domain)", "lacZ reporter activity": 0}
{"Molecule": "B3 (TRIM34 RING domain)", "lacZ reporter activity": 0}
{"Molecule": "B4 (ARIH1 RING domain)", "lacZ reporter activity": 0}
{"Molecule": "VPADASPDSKCPICLDRFDNVSYLDRCLHKFCFRCVQEWSKNKAECPLCKQPFDSIFHSV (TOPORS RING domain (UniProt Q9NS56))", "lacZ reporter activity": 11700}
{"Molecule": "B5 (RNF17 RING domain)", "lacZ reporter activity": 0}
{"Molecule": "FLSKVEETFQCICCQELVFRPITTVCQHNVCKDCLDRSFRAQVFSCPACRYDLGRSYAMQ (UHRF1 RING domain (UniProt Q96T88))", "lacZ reporter activity": 0}
{"Molecule": "B6 (CBLL1 RING domain)", "lacZ reporter activity": 0}
{"data": "Block 3", "target": "Interferon regulatory factor 7, full length, phosphomimetic (IRF7, Homo sapiens, UniProt Q92985, residues 1-503, S101K/S471D/S472D/S475D/S476D/S477D/S483D/S484D/S487D)", "technique": "protein-binding microarray", "molecule type": "double-stranded DNA, one strand shown", "sample": "in vitro", "concentration": "250 nM", "setting": "60-bp whole probe", "with": "salmon DNA 0.4 mg/ml", "relative to": "random background probes", "reading": "higher = stronger binding", "shared flanks, not repeated": "GCCTAGCAC … GTCTTGATTCGCTTGACGCTGCTG", "UniProt Q92985, sequence (whole entry, unmodified, looked up)": "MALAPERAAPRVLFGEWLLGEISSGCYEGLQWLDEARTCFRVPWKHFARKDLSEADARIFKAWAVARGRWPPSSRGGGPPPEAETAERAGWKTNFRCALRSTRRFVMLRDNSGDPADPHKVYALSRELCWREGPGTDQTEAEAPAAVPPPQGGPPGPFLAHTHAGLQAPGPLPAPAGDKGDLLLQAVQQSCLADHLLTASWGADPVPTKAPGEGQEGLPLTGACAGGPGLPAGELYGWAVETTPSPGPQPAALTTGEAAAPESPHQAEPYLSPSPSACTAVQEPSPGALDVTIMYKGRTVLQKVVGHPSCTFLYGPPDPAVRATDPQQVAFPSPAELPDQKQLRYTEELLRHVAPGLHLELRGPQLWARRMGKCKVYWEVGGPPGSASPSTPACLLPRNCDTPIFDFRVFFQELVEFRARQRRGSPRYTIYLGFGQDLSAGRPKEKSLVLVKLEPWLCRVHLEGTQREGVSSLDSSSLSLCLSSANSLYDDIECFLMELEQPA"}
{"Strand": "TAGGGACTCGGGTCTCCCTTGGTGCTA", "log fluorescence [z-score]": 0.986}
{"Strand": "GACGGTATCGGGTCTGGGGACGTGCTA", "log fluorescence [z-score]": 0.246}
{"Strand": "AGATGGTCCTCTCTCTATTCGTGCTAG", "log fluorescence [z-score]": 0.0555}
{"Strand": "AGGGTCCCGCGATTCGACACGTGCTAG", "log fluorescence [z-score]": 0.0142}
{"Strand": "TTAGTTCTCAGTATCGATTAGTGCTAG", "log fluorescence [z-score]": 1.81}
{"Strand": "CCCTTTCTCAACCTCCAGAGGTGCTAG", "log fluorescence [z-score]": 2.34}
{"Strand": "GACGGTATCGGAACTGGGGACGTGCTA", "log fluorescence [z-score]": 0.213}
{"Strand": "GACGGACGGGGTATCGGGACGTGCTAG", "log fluorescence [z-score]": -0.533}
{"Strand": "GACGATATCCGTCTCGAGACGTGCTAG", "log fluorescence [z-score]": 0.106}
{"Strand": "TCATATATATATTGTTAGACTGTGCTA", "log fluorescence [z-score]": 0.473}
{"Strand": "CCAGGGCTGCCAGCCTCCTCGTGCTAG", "log fluorescence [z-score]": -0.864}
{"Strand": "TCATCTTCAGCACTCGGACTGTGCTAG", "log fluorescence [z-score]": 0.357}
{"Strand": "CTGCAGGTAGCAGAGACTTGGTGCTAG", "log fluorescence [z-score]": -1.15}
{"Strand": "GACGAACCGGGGTTTCGAGACGTGCTA", "log fluorescence [z-score]": 2.55}
{"Strand": "TTACGTTTCGGACTGGGTTAGTGCTAG", "log fluorescence [z-score]": 1.84}
{"Strand": "TTAGATTCCTGTTTCGATTAGTGCTAG", "log fluorescence [z-score]": 6.48}
{"Strand": "TTAGGTATCGGCATCGGTTAGTGCTAG", "log fluorescence [z-score]": 0.16}
{"Strand": "GACTGTTTCGACTATCGGGACGTGCTA", "log fluorescence [z-score]": 2.27}
{"Strand": "TCATTTTTACTTCGGGTACTGTGCTAG", "log fluorescence [z-score]": 0.882}
{"Strand": "GCTGGTCTCTAACTCAAGATGTGCTAG", "log fluorescence [z-score]": -0.325}
{"Strand": "GACGATTGCGGGTTTCGAGACGTGCTA", "log fluorescence [z-score]": 2.22}
{"Strand": "CTTTAACTCATTTTCATTTTGTGCTAG", "log fluorescence [z-score]": 1.91}
{"Strand": "TACGATATCAGACTGGAGACGTGCTAG", "log fluorescence [z-score]": -0.331}
{"Strand": "GACGGTCTCCTTCTCCAGACGTGCTAG", "log fluorescence [z-score]": -0.0752}
{"Strand": "GACGATTTCCGGTTTCGAGACGTGCTA", "log fluorescence [z-score]": 6.31}
{"data": "Block 4", "target": "Histone acetyltransferase KAT6A, both winged helices, GST fusion (KAT6A, Homo sapiens, UniProt Q92794, residues 1-181)", "technique": "protein binding microarray", "molecule type": "double-stranded DNA, one strand shown", "sample": "in vitro", "concentration": "not given", "setting": "8-mer, flanks averaged, mean of 2 arrays, mostly near background", "relative to": "not given", "reading": "higher = stronger binding", "Target sequence (chain)": "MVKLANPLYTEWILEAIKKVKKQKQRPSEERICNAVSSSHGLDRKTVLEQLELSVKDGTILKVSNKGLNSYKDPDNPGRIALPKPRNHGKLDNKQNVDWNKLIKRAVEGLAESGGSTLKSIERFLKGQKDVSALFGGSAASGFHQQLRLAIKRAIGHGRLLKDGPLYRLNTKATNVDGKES"}
{"Strand": "AACGAGGA", "E-score": -0.189}
{"Strand": "AAAGCTCG", "E-score": -0.0959}
{"Strand": "GACCAGAA", "E-score": -0.0846}
{"Strand": "AAGATTAG", "E-score": 0.0618}
{"Strand": "ACTCGGAA", "E-score": 0.0311}
{"Strand": "ATGGGTAC", "E-score": -0.0598}
{"Strand": "GACGGACA", "E-score": 0.197}
{"Strand": "ACAAATGG", "E-score": -0.0916}
{"Strand": "ACCCGAGG", "E-score": 0.0783}
{"Strand": "GAGGGACA", "E-score": -0.0973}
{"Strand": "AATGATTG", "E-score": -0.14}
{"Strand": "CAAATTGA", "E-score": -0.178}
{"Strand": "CACAGCGC", "E-score": 0.254}
{"data": "Block 5", "target": "RNA binding protein fox-1 homolog 2, RRM domain, GST-SBP tag (RBFOX2, Homo sapiens, UniProt O43251-10, residues 100-194)", "technique": "RNA Bind-n-Seq", "molecule type": "RNA", "sample": "in vitro", "concentration": "365 nM", "setting": "natural RNA segment, single round, ends assumed", "relative to": "no-protein control", "reading": "higher = stronger binding", "Target sequence (chain)": "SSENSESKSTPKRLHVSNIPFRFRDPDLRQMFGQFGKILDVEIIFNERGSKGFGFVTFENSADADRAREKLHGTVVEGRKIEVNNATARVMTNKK"}
{"Strand": "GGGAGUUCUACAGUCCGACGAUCAAUGUGCUUCGCAAGCCAGGCUAUCUUCCAAGGAAGGCAGACAGUGGGAGAGCAGAGGGACUGACUGCAGGCAAGCACAUUGAAGAAAGACACUGGCGGGUUUCCCCACCUGGAAUUCUCGGGUGCCAA", "RBNS enrichment (R)": 0.574}
{"Strand": "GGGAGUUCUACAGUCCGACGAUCGUACAAAUCAGCACCCACAUCCCCUUUCUUGACAAAUGAUUUUUCUAGAGAACUAUGUUCUUCCCUGACUUUAGGGAAGGUGAAUGUGUUCCCGUCCUCCCGCAGUCAGAUGGAAUUCUCGGGUGCCAA", "RBNS enrichment (R)": 0.551}
{"Strand": "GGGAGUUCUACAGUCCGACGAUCCAUCUCAAGCACUCAGAGCUCUGUGAGCUUGCCUACUGUGCGCAGGAUCUCCCCAAGUAUGUCCUACUCUGUGCACCCUGUGCUGGAGCCCUACUUUUCACCCCGCUGCCUGGAAUUCUCGGGUGCCAA", "RBNS enrichment (R)": 0.632}
{"Strand": "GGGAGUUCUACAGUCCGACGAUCGACUCCAGCCACCACCCACUGACGUUAUUUUUAUACUAGAUGAAGAGGUCAACAGCAGGCAUGGGGAGCCGAGUCUUCUGUGCUCAGGUCCUCACGCUGCAGACGCCCCCUGGAAUUCUCGGGUGCCAA", "RBNS enrichment (R)": 0.29}
{"Strand": "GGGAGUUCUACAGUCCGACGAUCCAGAGGCUCCCAACCCAUGCGCUACCAAAUACGCCUGGGCAGCCGGGCGGGCCAGCGGGCACCAGGACUGGUCUCCUCUGCGCUCUGAUUUGUUGACUGAAACUGUAAGGUGGAAUUCUCGGGUGCCAA", "RBNS enrichment (R)": 0.343}
{"Strand": "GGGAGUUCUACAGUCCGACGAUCACCUGCAGCCACCUUGGUUUUGCCUUGGAGAACAUUUGGGGAGCAUUUCCUGAACCCAUGUCUUUUGGGGGUACAGCUUGUCAUCCAGCAGGAAUUAUUGAGCGAGCAGGUGGAAUUCUCGGGUGCCAA", "RBNS enrichment (R)": 0.483}
{"Strand": "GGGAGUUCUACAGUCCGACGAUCUACGGCAGCUGGUGGAAUCUAUUGGGCAAAAAGUCCUGCAACCCUCUUACCUCCAGGCUUUGGUGCUUAACACAAAAUGACUGCAGAUGCCUCUCUGGAAGCCCUAGGCUUGGAAUUCUCGGGUGCCAA", "RBNS enrichment (R)": 0.616}
{"Strand": "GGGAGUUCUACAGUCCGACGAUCCUUAGGGCAGAAACACCAUCCUAUCAGGUUUGGUCAGUCCCUUCUUCAUGAAGGGAGUCAUGGGGAAUUCCUGAAAAUUUUCUUCCUUCUGCAGACAGUUGGAUGAGUCCUGGAAUUCUCGGGUGCCAA", "RBNS enrichment (R)": 0.229}
{"Strand": "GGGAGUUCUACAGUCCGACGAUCGUUUGUUUCUGGGUACUUUGCGCCUCUGGGGUGCUAGAGGUGGGGCAUGGUGGCUGGAAGUAAAACUGCCAACUCUGGCCCUCAGAACUCUCAGGUAUAGAAGCCCAGGAUGGAAUUCUCGGGUGCCAA", "RBNS enrichment (R)": 0.367}
{"Strand": "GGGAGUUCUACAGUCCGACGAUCCCCAGGUUCUAAACUGAAACUGACUAGAGAUGAAUCCAGCGCCUGACAGAAUGUCAUUCUCCUUCAGUUGCUGCCAUUUUAUCUCCUCCUGAAAGCUAAAGGCUCACCACUGGAAUUCUCGGGUGCCAA", "RBNS enrichment (R)": 0.437}
{"Strand": "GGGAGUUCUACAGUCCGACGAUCUCCUGAGCCCUGCUCUCCUCUCCUCCAUCCUGUCCCAAUCUGUGUCCCCCUUGACCUGUGGCUCCAGGCCAUCGGCAUUGGUGCCUACGUGUCCAGCCACUGCCUGCUGAUGGAAUUCUCGGGUGCCAA", "RBNS enrichment (R)": 2.35}
{"Strand": "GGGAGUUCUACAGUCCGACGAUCUGAAAGGGGUUUUUCCCUAGUCAAGCAUUUGGAGACACUUUUUGUAAAUGUGACUUUUAUGUCAGCCAUCGUCAGUUUCAACAUCUAGAACUAAAUAGAAAGCUAGUUGUUGGAAUUCUCGGGUGCCAA", "RBNS enrichment (R)": 0.38}
{"note": "Excerpt of the above (block 1):"}
{"Strand": "GAUUUU", "6-mer enrichment (R)": 0.631}
{"Strand": "CGGCUU", "6-mer enrichment (R)": 0.736}
{"Strand": "UAUGUC", "6-mer enrichment (R)": 0.654}
{"Strand": "CAUCUG", "6-mer enrichment (R)": 0.612}
